Results pooled from the literature.
Lines come from different studies, so protocols differ. ± marks the error that the study gave.
Target: Acetylcholinesterase (ACHE, Homo sapiens, UniProt P22303)
UniProt P22303, sequence (whole entry, looked up): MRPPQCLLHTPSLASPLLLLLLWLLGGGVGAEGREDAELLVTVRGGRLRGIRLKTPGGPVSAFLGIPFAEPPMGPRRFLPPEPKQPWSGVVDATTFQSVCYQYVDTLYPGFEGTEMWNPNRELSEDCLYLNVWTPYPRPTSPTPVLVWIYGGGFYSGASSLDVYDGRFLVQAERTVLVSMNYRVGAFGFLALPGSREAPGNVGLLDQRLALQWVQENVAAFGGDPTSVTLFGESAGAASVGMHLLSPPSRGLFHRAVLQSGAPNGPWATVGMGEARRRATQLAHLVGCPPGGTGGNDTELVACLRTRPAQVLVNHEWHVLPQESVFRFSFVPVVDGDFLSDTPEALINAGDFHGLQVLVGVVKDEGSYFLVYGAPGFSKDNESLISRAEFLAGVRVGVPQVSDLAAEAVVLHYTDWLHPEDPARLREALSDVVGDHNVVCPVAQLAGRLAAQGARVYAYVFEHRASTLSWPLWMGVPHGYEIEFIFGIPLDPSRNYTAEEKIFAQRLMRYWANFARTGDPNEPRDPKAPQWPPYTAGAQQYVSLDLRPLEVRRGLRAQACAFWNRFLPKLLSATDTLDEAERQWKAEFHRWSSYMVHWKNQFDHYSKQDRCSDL

`O=c1c(O)c(-c2ccc(O)cc2)oc2c(Cc3c(O)cc(O)c4c(=O)c(O)c(-c5ccc(O)cc5)oc34)c(O)cc(O)c12` has an IC50 of 1.42 µM (enzyme activity, inhibitor, Ellman).
The IC50 of `COc1c(OC(=O)N(C)c2ccc(Cl)cc2)cc2oc3cc4c(c(O)c3c(=O)c2c1CC=C(C)C)C=CC(C)(C)O4` is reported as 43.6 µM (enzyme activity, inhibitor).
`Cc1cc(O)c2c(c1)C(=O)c1c(O)ccc(O)c1C2=O` gave an IC50 of 7.9 µM (enzyme activity, inhibitor, Ellman).
`COc1ccc(/C=C2/SC(Nc3nc(-c4ccc(C)cc4)cs3)=NC2=O)cc1OC` gave an IC50 of 0.103 µM (enzyme activity, inhibitor, Ellman).
`O=C1c2c(O)cc(O)cc2O[C@]2(c3ccc(O)c(O)c3)Oc3cc(O)c4c(=O)c(O)c(-c5ccc(O)c(O)c5)oc4c3[C@]12O` has an IC50 of over 50 µM (enzyme activity, inhibitor, Ellman).
The IC50 of `COc1cc2c(cc1OC)C(=O)/C(=C\c1ccc(-n3ccnc3)cc1)C2` is reported as 70 µM (enzyme activity, inhibitor, Ellman).
`CCc1cccc(N(C)C(=O)Oc2cc3oc4cc5c(c(O)c4c(=O)c3c(CC=C(C)C)c2OC)C=CC(C)(C)O5)c1` has an IC50 of 46 µM (enzyme activity, inhibitor).
`COC(=O)CC1NC(C(C)=O)=NN(c2ccc3c(C)cc(=O)oc3c2)C1=O` (stereo not drawn) has an IC50 of 135 µM (enzyme activity, inhibitor, Ellman).
For `COc1cc2c(cc1OC)C(=O)/C(=C\c1ccc(Cl)cc1)C2`, the IC50 was over 10 µM (enzyme activity, inhibitor, Ellman).
For `O=C1c2ccccc2NC(c2cc([N+](=O)[O-])ccc2O)N1/N=C/c1cc([N+](=O)[O-])ccc1O` (stereo not drawn), the IC50 was 14.2 µM (enzyme activity, inhibitor, Ellman).
`O=c1c(O)c(-c2cc(O)ccc2O)oc2cc(O)cc(O)c12` has an IC50 of 298 µM.
With `O=C(NCc1ccc[n+](Cc2ccc(Cl)cc2)c1)c1ccc(CN2C(=O)c3ccccc3C2=O)cc1` the IC50 was 0.48 µM (enzyme activity, inhibitor, Ellman).
With `Cc1nc2ccc(NCc3cn(CCCCOC4=CC(=O)c5ccccc5C4=O)nn3)cc2nc1C` the IC50 was 15.5 µM (enzyme activity, inhibitor, Ellman).
With `COc1c(OC(=O)N(C)c2ccccc2Br)cc2oc3cc4c(c(O)c3c(=O)c2c1CC=C(C)C)C=CC(C)(C)O4` the IC50 was 19.2 µM (enzyme activity, inhibitor).
`CNCCc1ccc(O)cc1` has an IC50 of 464 µM (enzyme activity, inhibitor).
With `Cc1nc2ccc(NCc3cn(CCCCCCCCOC4=CC(=O)c5ccccc5C4=O)nn3)cc2nc1C` the IC50 was 3.5 µM (enzyme activity, inhibitor, Ellman).
With `CN1c2ccc(OC(=O)Nc3ccncc3)cc2C2(C)CCOC12` (stereo not drawn) the IC50 was 7 µM (enzyme activity, inhibitor, fluorescence).
For `COc1cc2c(cc1OC)C(=O)/C(=C\c1ccc(N3CCCCC3)cc1)C2`, the IC50 was 26 µM (enzyme activity, inhibitor, Ellman).
With `COc1cc2c(cc1OC)C1C(O)C(OC)C(O)C3=CC[N+](CCl)(C2)C31` (stereo not drawn) the IC50 was 76 µM (enzyme activity, inhibitor).
With `CC(=O)C1=NN(c2ccc3c(C)cc(=O)oc3c2)C(=O)C2CCCN12` (stereo not drawn) the IC50 was 163 µM (enzyme activity, inhibitor, Ellman).
The IC50 of `O=C(O)/C=C/c1ccc(O)cc1` is reported as 487 µM (inhibitor).
`O=C1C=C(OCCCCCCCCn2cc(CNc3ccc4nccnc4c3)nn2)C(=O)c2ccccc21` gave an IC50 of 0.022 µM (enzyme activity, inhibitor, Ellman).
For `CCS(=O)(=O)N1CCN(CC(=O)Nc2ccc(/C=C/C(=O)c3ccc(OC)c(OC)c3)cc2)CC1`, the IC50 was 0.205 µM (enzyme activity, inhibitor, Ellman).
For `COc1c(OC(=O)N(C)c2ccc(Br)cc2)cc2oc3cc4c(c(O)c3c(=O)c2c1CC=C(C)C)C=CC(C)(C)O4`, the IC50 was 40.6 µM (enzyme activity, inhibitor).
With `COc1cc2c(cc1OC)C(=O)/C(=C\c1ccc(-n3cccn3)cc1)C2` the IC50 was 55 µM (enzyme activity, inhibitor, Ellman).
`O=C1c2c(O)cc(O)cc2O[C@]2(c3ccc(O)cc3)Oc3cc(O)c4c(=O)c(O)c(-c5ccc(O)c(O)c5)oc4c3[C@]12O` gave an IC50 of over 50 µM (enzyme activity, inhibitor, Ellman).
`COc1ccc2[nH]cc(CCNS(=O)(=O)CCc3cn(-c4cnc5ccccc5c4)nn3)c2c1` has an IC50 of 1.35 µM (enzyme activity, inhibitor).
The IC50 of `O=C1c2c(O)cc(O)cc2O[C@]2(c3ccc(O)cc3)Oc3cc4oc(-c5ccc(O)c(O)c5)c(O)c(=O)c4c(O)c3[C@]12O` is reported as 4.97 µM (enzyme activity, inhibitor, Ellman).
For `O=C(/C=C/c1ccccc1)C(F)(F)F`, the IC50 was 0.33 µM (enzyme activity, inhibitor, Ellman).
The IC50 of `C=CCc1ccc(OC(=O)COC(=O)Cn2cnc3c2c(=O)n(C)c(=O)n3C)c(OC)c1` is reported as 1.8 µM (enzyme activity, inhibitor, Ellman).
`O=C1c2c(O)cc(O)cc2O[C@@]2(c3ccc(O)c(O)c3)Oc3cc(O)c4c(=O)c(O)c(-c5ccc(O)cc5)oc4c3[C@@]12O` has an IC50 of 9.89 µM (enzyme activity, inhibitor, Ellman).
For `CCOc1ccc2nc3cc(N)ccc3c(N)c2c1`, the IC50 was 6.9 µM (enzyme activity, inhibitor, Ellman).
With `Cc1ccc(C[n+]2cccc(CNC(=O)c3ccc(CN4C(=O)c5ccccc5C4=O)cc3)c2)cc1` the IC50 was 7.56 µM (enzyme activity, inhibitor, Ellman).
For `CCN1CCN(C(=NNc2ccc3c(C)cc(=O)oc3c2)C(C)=O)CC1`, the IC50 was 216 µM (enzyme activity, inhibitor, Ellman).
With `Nn1c(-c2ccc(-n3nc(-c4ccccc4O)nc3-c3ccccc3O)cc2)n[nH]c1=S` the IC50 was 0.71 ± 0.16 µM.
For `COc1c(OC(=O)N(C)c2cccc(Cl)c2)cc2oc3cc4c(c(O)c3c(=O)c2c1CC=C(C)C)C=CC(C)(C)O4`, the IC50 was 47.8 µM (enzyme activity, inhibitor).

Excerpt of the above:
The IC50 of `O=C1c2c(O)cc(O)cc2O[C@]2(c3ccc(O)cc3)Oc3cc4oc(-c5ccc(O)c(O)c5)c(O)c(=O)c4c(O)c3[C@]12O` is reported as 4.97 µM (enzyme activity, inhibitor, Ellman).
For `O=C(/C=C/c1ccccc1)C(F)(F)F`, the IC50 was 0.33 µM (enzyme activity, inhibitor, Ellman).
The IC50 of `C=CCc1ccc(OC(=O)COC(=O)Cn2cnc3c2c(=O)n(C)c(=O)n3C)c(OC)c1` is reported as 1.8 µM (enzyme activity, inhibitor, Ellman).
`O=C1c2c(O)cc(O)cc2O[C@@]2(c3ccc(O)c(O)c3)Oc3cc(O)c4c(=O)c(O)c(-c5ccc(O)cc5)oc4c3[C@@]12O` has an IC50 of 9.89 µM (enzyme activity, inhibitor, Ellman).
